Measured values from different studies.
Each line is one published result; not all experiments were run side by side.
Organism: Klebsiella pneumoniae

Compound	assay	test system	setting	MIC
COc1ccc2ccc(O)c(/C=N/[C@H]3CCCC[C@H]3/N=C/c3cccc(C)c3O)c2c1	bacterial growth, broth microdilution	carbapenem-resistant clinical isolate	–	> 40 µM
N=C(N)NCCC[C@@H]1NC(=O)[C@@H](CCCNC(=N)N)NC(=O)[C@H](CCCNC(=N)N)NC(=O)[C@@H](C(c2ccccc2)c2ccccc2)NC(=O)[C@@H](C(c2ccccc2)c2ccccc2)NC(=O)[C@@H](C(c2ccccc2)c2ccccc2)NC(=O)[C@@H](CCCNC(=N)N)NC1=O	–	ATCC 700603, ESBL SHV-18	–	64 µg/mL
CC[C@H](C)[C@H](NC(=O)CN)C(=O)NCC(=O)N[C@@H](C)C(=O)N[C@H](C(=O)N[C@@H](CC(C)C)C(=O)N[C@@H](CCCCN)C(=O)N[C@H](C(=O)N[C@@H](CC(C)C)C(=O)N[C@H](C(=O)N[C@H](C(=O)NCC(=O)N[C@@H](CC(C)C)C(=O)N1CCC[C@H]1C(=O)N[C@@H](C)C(=O)N[C@@H](CC(C)C)C(=O)N[C@H](C(=O)N[C@@H](CO)C(=O)N[C@@H](Cc1c[nH]c2ccccc12)C(=O)N[C@H](C(=O)N[C@@H](CCCCN)C(=O)N[C@@H](CCCNC(=N)N)C(=O)N[C@@H](CCCCN)C(=O)N[C@@H](CCCNC(=N)N)C(=O)N[C@@H](CCC(N)=O)C(=O)N[C@@H](CCC(N)=O)C(N)=O)[C@@H](C)CC)[C@@H](C)CC)[C@@H](C)O)[C@@H](C)O)C(C)C)C(C)C	CLSI broth microdilution	ATCC 13883	18 h, 37 °C	2 µM
CCCCCCCC(=O)N[C@@H](CCN)C(=O)N[C@H](C(=O)N[C@@H](CCN)C(=O)N[C@H]1CCNC(=O)[C@H]([C@@H](C)O)NC(=O)[C@H](CCN)NC(=O)[C@H](CCN)NC(=O)[C@H](Cc2cc(F)c(F)c(F)c2)NC(=O)[C@@H](CC(C)C)NC(=O)[C@H](CCN)NC1=O)[C@@H](C)O	broth microdilution	ATCC 13883, colistin-susceptible	–	8 to 16 µg/mL
CC[C@H](C)[C@H](NC(=O)[C@H](CCCCN)NC(=O)[C@@H](NC(=O)[C@@H](NC(=O)[C@H](CC(C)C)NC(=O)[C@H](CCCNC(=N)N)NC(=O)[C@@H](NC(=O)[C@H](CC(C)C)NC(=O)[C@H](CCCNC(=N)N)NC(=O)CNC(=O)[C@H](Cc1ccccc1)NC(=O)[C@@H](N)CCCNC(=N)N)[C@@H](C)CC)[C@@H](C)CC)C(C)C)C(=O)N[C@@H](C)C(=O)N[C@@H](CCCNC(=N)N)C(=O)N[C@@H](CCCNC(=N)N)C(=O)N[C@@H](C)C(=O)N[C@@H](Cc1c[nH]cn1)C(=O)N[C@@H](CCCNC(=N)N)C(=O)N[C@@H](C)C(=O)N[C@@H](CCCNC(=N)N)C(=O)N1CCC[C@H]1C(=O)N[C@@H](C)C(=O)N[C@H](C(=O)N[C@@H](CCCCN)C(=O)N[C@@H](C)C(=O)N[C@@H](C)C(=O)N[C@@H](CO)C(=O)N[C@@H](CC(N)=O)C(=O)N[C@H](C(=O)N[C@@H](C)C(=O)N[C@@H](CCC(=O)O)C(=O)N[C@@H](CC(C)C)C(=O)N[C@@H](C)C(=O)N[C@@H](Cc1c[nH]cn1)C(=O)NCC(=O)N[C@@H](CCC(=O)O)C(N)=O)C(C)C)C(C)C	bacterial growth, broth microdilution	cation-adjusted Mueller Hinton broth	18 h, 37 °C	> 7.99 µM
CCCCCCCC(=O)N[C@@H](CCN)C(=O)N[C@H](C(=O)N[C@@H](CCN)C(=O)N[C@H]1CCNC(=O)[C@H]([C@@H](C)O)NC(=O)[C@H](CCN)NC(=O)[C@H](CCN)NC(=O)[C@H](CCC(C)C)NC(=O)[C@@H](Cc2ccccc2)NC(=O)[C@H](CCN)NC1=O)[C@@H](C)O	broth microdilution	ATCC 19606	–	< 0.125 µg/mL
CCCC[C@H](NC(=O)[C@H](Cc1ccc(O)cc1)NC(=O)[C@@H]1CCCN1C(=O)[C@@H]1CCCN1C(=O)[C@H](CCCCN)NC(=O)[C@H](CC(=O)O)NC(=O)[C@@H](N)C(C)C)C(=O)N1CCC[C@H]1C(=O)N[C@@H](CCCNC(=N)N)C(=O)N1CCC[C@H]1C(=O)N[C@@H](CCCNC(=N)N)C(=O)N1CCC[C@H]1C(=O)N1CCC[C@H]1C(=O)N[C@@H](CCCNC(=N)N)C(=O)N[C@H](CCCNC(=N)N)C(=O)N[C@H](C(=O)N[C@@H](Cc1ccc(O)cc1)C(=O)N[C@@H](CC(N)=O)C(=O)N[C@H](CCCNC(=N)N)C(N)=O)[C@@H](C)CC	broth microdilution	DSM 681	18 h, 37 °C, 25% MHB2	4 µg/mL
COc1ccc2ccc(O)c(/C=N/[C@H]3CCCC[C@H]3/N=C/c3ccc(F)cc3O)c2c1	bacterial growth, broth microdilution	carbapenem-resistant	–	> 40 µM
CC[C@H](C)[C@H](NC(=O)[C@@H](CCCNC(=N)N)NC(=O)[C@H](CCCNC(=N)N)NC(=O)[C@H](CC(=O)O)NC(=O)[C@H](Cc1c[nH]c2ccccc12)NC(=O)[C@H](CCCNC(=N)N)NC(=O)[C@@H]1CCCN1C(=O)[C@H](CCCNC(=N)N)NC(=O)[C@@H]1CCCN1C(=O)[C@H](CC(C)C)NC(=O)[C@H](Cc1ccc(O)cc1)NC(=O)[C@@H]1CCCN1C(=O)[C@@H]1CCCN1C(=O)[C@H](CCCCN)NC(=O)[C@H](CC(=O)O)NC(=O)[C@@H](N)C(C)C)C(=O)N[C@@H](Cc1ccc(O)cc1)C(=O)N[C@@H](CC(N)=O)C(=O)N[C@H](CCCNC(=N)N)C(N)=O	broth microdilution	DSM 681	18 h, 37 °C, 25% MHB2	4 µg/mL
CCn1c(-c2ccc(OC)cc2)c(-c2ccc(OC)cc2)n(Cc2c(C)cc(C)cc2C)c1=[Se]	broth microdilution	carbapenem-resistant BAA-1705	24 h	> 40 µM
CC[C@H](C)[C@H](N)C(=O)N[C@@H](CCCNC(=N)N)C(=O)N[C@H](C(=O)N[C@@H](Cc1c[nH]c2ccccc12)C(=O)N[C@@H](Cc1ccccc1)C(=O)N[C@H](C(=O)N[C@@H](CCCCN)C(=O)N[C@H](C(=O)N[C@@H](CCCNC(=N)N)C(=O)N[C@@H](CCCCN)C(=O)N[C@@H](CCSC)C(=O)N[C@@H](CCCCN)C(=O)N[C@@H](C)C(=O)N[C@H](C(=O)N[C@@H](Cc1ccc(O)cc1)C(=O)N[C@@H](Cc1c[nH]cn1)C(N)=O)[C@@H](C)CC)C(C)C)[C@@H](C)CC)C(C)C	broth dilution	ATCC 700603	–	100 µM
N=C(N)NCCC[C@@H]1NC(=O)[C@H](CCCNC(=N)N)NC(=O)[C@@H](CCCNC(=N)N)NC(=O)[C@@H](CCCNC(=N)N)NC(=O)[C@@H](C(c2ccccc2)c2ccccc2)NC(=O)[C@@H](Cc2c[nH]c3ccccc23)NC(=O)[C@@H](C(c2ccccc2)c2ccccc2)NC1=O	–	ATCC BAA1705, KPC-2 carbapenem-resistant	–	> 64 µg/mL
CC1(C)[C@H](NC(=O)/C(=N\OCc2c(Cl)cccc2Cl)c2nsc(N)n2)C(=O)N1OS(=O)(=O)O	agar dilution	09-20, NDM-1	–	8 µg/mL
O=C(c1ccccc1O)c1[nH]c(Cl)c(Cl)c1-n1c(C(=O)c2ccccc2O)cc(Cl)c1Cl	microbial growth	ATCC700603	–	> 64 µM
C=C1NC(=O)C2CSCC3NC(=O)C(CSC(C)C(NC(=S)C(Cc4cnc[nH]4)NC(=O)c4csc(C(C)NC(C)=O)n4)C(=O)N[C@H](CC(C)C(=O)NC(=O)CC(C(=O)O)NC(=O)C(C)NC3=O)C(=O)N2)NC(=O)[C@@H]2CCCN2C(=O)[C@@H](CC(C)C)NC1=O (some centres unmarked)	bacterial growth	ATCC 12657	–	> 32 µg/mL
CN[C@@H]1[C@H](O)[C@H](NC)[C@H]2O[C@]3(O)[C@H](O[C@@H]2[C@H]1O)O[C@H](C)C[C@H]3NC(=O)CNC(C)(C)C	microbial growth, broth dilution	ATCC33495	–	200 µg/mL
CC[C@H](C)[C@H](NC(=O)[C@@H](CCCNC(=N)N)NC(=O)[C@H](CCCNC(=N)N)NC(=O)CNC(=O)[C@H](Cc1c[nH]c2ccccc12)NC(=O)[C@H](CCCNC(=N)N)NC(=O)[C@@H]1CCCN1C(=O)[C@H](CCCNC(=N)N)NC(=O)[C@@H]1CCCN1C(=O)[C@H](CC(C)C)NC(=O)[C@H](Cc1ccc(O)cc1)NC(=O)[C@@H]1CCCN1C(=O)[C@@H]1CCCN1C(=O)[C@H](CCCCN)NC(=O)[C@H](CC(=O)O)NC(=O)[C@@H](N)C(C)C)C(=O)N[C@@H](Cc1ccc(O)cc1)C(=O)N[C@@H](CC(N)=O)C(=O)N[C@H](CCCNC(=N)N)C(N)=O	broth microdilution	DSM 681	18 h, 37 °C, 25% MHB2	2 µg/mL
CC1(C)[C@H](NC(=O)/C(=N\OCC(=O)N2CCC(C(=O)O)CC2)c2csc(N)n2)C(=O)N1OS(=O)(=O)O	agar dilution	09-20, NDM-1	–	8 µg/mL
CC(=O)N[C@H](Cc1cccc(F)c1)C(=O)N[C@@H](CCN)C(=O)N[C@H](C(=O)N[C@@H](CCN)C(=O)N[C@H]1CCNC(=O)[C@H]([C@@H](C)O)NC(=O)[C@H](CCN)NC(=O)[C@H](CCN)NC(=O)[C@H](CC(C)C)NC(=O)[C@@H](Cc2ccccc2)NC(=O)[C@H](CCN)NC1=O)[C@@H](C)O	broth microdilution	ATCC 13883, colistin-susceptible	–	> 64 µg/mL
CC1(C)[C@H](NC(=O)/C(=N\OCC(=O)N2CCC[C@@H]2C(=O)O)c2nsc(N)n2)C(=O)N1OS(=O)(=O)O	agar dilution	2146, NDM-1	–	> 64 µg/mL
COc1ccc2ccc(O)c(/C=N/[C@H]3CCCC[C@H]3/N=C/c3cc(C)ccc3O)c2c1	bacterial growth, broth microdilution	carbapenem-resistant	–	> 40 µM
C=CCO/N=C(\C(=O)N[C@@H]1C(=O)N(OS(=O)(=O)O)C1(C)C)c1nsc(N)n1	agar dilution	09-20, NDM-1	–	2 µg/mL
CC[C@H](C)[C@H](NC(=O)[C@@H](CCCNC(=N)N)NC(=O)[C@H](CCCNC(=N)N)NC(=O)[C@@H]1CCCN1C(=O)[C@@H]1CCCN1C(=O)[C@H](CCCNC(=N)N)NC(=O)[C@@H]1CCCN1C(=O)[C@H](CCCNC(=N)N)NC(=O)[C@@H]1CCCN1C(=O)[C@H](Cc1ccccc1)NC(=O)[C@H](Cc1ccc(O)cc1)NC(=O)[C@@H]1CCCN1C(=O)[C@@H]1CCCN1C(=O)[C@H](CCCCN)NC(=O)[C@H](CC(=O)O)NC(=O)[C@@H](N)C(C)C)C(=O)N[C@@H](Cc1ccc(O)cc1)C(=O)N[C@@H](CC(N)=O)C(=O)N[C@H](CCCNC(=N)N)C(N)=O	broth microdilution	DSM 681	18 h, 37 °C, 25% MHB2	> 128 µg/mL
